Experimental data collected from several papers.
± gives the spread as reported.

SMILES	test	system	conditions	tissue uptake
N=C(N)NCc1ccc(C(=O)NCCCC[C@H](NC(=O)CCCCCCC(=O)NCCCC[C@H](NC(=O)N[C@@H](CCC(=O)O)C(=O)O)C(=O)O)C(=O)O)cc1[211At]	–	SCID mouse, PC-3 xenografts, liver	1 h	5.11 ± 4.13 %ID/g
CCCC[C@H](NC(=O)CN1CCC(NC(=O)CN2CCC(NC(=O)CN3CCN(CC(=O)O)CCN(CC(=O)O)CCN(CC(=O)O)CC3)CC2)CC1)C(=O)N[C@H]1CC(=O)NCCCC[C@@H](C(N)=O)NC(=O)[C@H](Cc2c[nH]c3ccccc23)NC(=O)[C@H](CCCNC(=N)N)NC(=O)[C@@H](Cc2ccccc2)NC(=O)[C@H](Cc2c[nH]cn2)NC1=O [gallium-68 labelled]	–	C57BL/6J mice male B16-F10 tumour, spleen	1 h post injection, unblocked	0.2 %ID/g
CC(C)C[C@@H](NC(=O)[C@@H](CCCNC(=N)N)NC(=O)[C@@H](Cc1c[nH]cn1)NC(=O)[C@@H](Cc1c[nH]c2ccccc12)NC(=O)[C@@H](Cc1c[nH]cn1)NC(=O)[C@@H](Cc1ccccc1)NC(=O)[C@H](NC(=O)[C@@H](Cc1ccc(O)cc1)NC(=O)CNC(=O)CNC(=O)CCOCCOCCOCCNC(=O)CN1CCN(CC(=O)O)CCN(CC(=O)O)CC1)[C@H](C)O)C(=O)N[C@H](CC(N)=O)C(=O)N1CCC[C@@H]1C(=O)O [gallium-68 labelled]	static PET	male C57BL/6 mice, tumour	intravenous, 60 min	3.76 ± 0.68 %ID/g
CN[C@](C)(C[18F])C(=O)O	–	SCID mouse U87 xenograft, heart	120 min, post injection	3.3 ± 1 %ID/g
COc1cc2ccnc(Cc3ccc(O[11CH3])c(OC)c3)c2cc1OC	–	Sprague-Dawley rats, liver	intravenous, 0.5 h	1.49 ± 0.464 %ID/g
C=Cc1cc(O)cc2nc(-c3ccc(O)c([76Br])c3)oc12	–	female C57BL/6 mouse, lung	1 h, high dose, added: estradiol 20 µg blocking	0.34 ± 0.11 %ID/g
N=C(N)NCc1ccc(C(=O)NCCCC[C@H](NC(=O)N[C@@H](CCC(=O)O)C(=O)O)C(=O)O)cc1[131I]	–	SCID mouse, PC-3 xenografts, brain	1 h	0.11 ± 0.07 %ID/g
CCNc1cc2[o+]c3cc(NCC)c(C)cc3c(-c3ccccc3C(=O)OCCOCC[18F])c2cc1C	–	rat, lung	30 min	0.58 ± 0.14 %ID/g
C[S]1CC[S]2CC[P](CO)(CO)[99Tc+]12.[C-]#[O+].[C-]#[O+].[C-]#[O+]	–	CF-1 mice, female, blood	intravenous, 1 h	0.22 %ID/g
N=C(N)NCc1ccc(C(=O)NCCCC[C@H](NC(=O)CCCCCCC(=O)NCCCC[C@H](NC(=O)N[C@@H](CCC(=O)O)C(=O)O)C(=O)O)C(=O)O)cc1[131I]	–	SCID mouse, PC-3 xenografts, brain	1 h	0.05 ± 0.02 %ID/g
COc1ccc(C)cc1NC(=O)OC1CC2CCCC(C1)N2Cc1ccc(CC[18F])cc1 (stereo not drawn)	–	BALB/c mice, EMT6 tumour, liver	2 h	17.1 ± 1.57 %ID/g
O=C(c1ccc(F)cc1)C1CCN(C2Cc3c(cccc3OCC[18F])CC2O)CC1 (single isomer, unassigned; (-))	–	Sprague-Dawley rat, male, kidney	intravenous, dose not given, 60 min	0.604 ± 0.092 %ID/g

Excerpt of the above:
SMILES	test	system	conditions	tissue uptake
CC(C)C[C@@H](NC(=O)[C@@H](CCCNC(=N)N)NC(=O)[C@@H](Cc1c[nH]cn1)NC(=O)[C@@H](Cc1c[nH]c2ccccc12)NC(=O)[C@@H](Cc1c[nH]cn1)NC(=O)[C@@H](Cc1ccccc1)NC(=O)[C@H](NC(=O)[C@@H](Cc1ccc(O)cc1)NC(=O)CNC(=O)CNC(=O)CCOCCOCCOCCNC(=O)CN1CCN(CC(=O)O)CCN(CC(=O)O)CC1)[C@H](C)O)C(=O)N[C@H](CC(N)=O)C(=O)N1CCC[C@@H]1C(=O)O [gallium-68 labelled]	static PET	male C57BL/6 mice, tumour	intravenous, 60 min	3.76 ± 0.68 %ID/g
CN[C@](C)(C[18F])C(=O)O	–	SCID mouse U87 xenograft, heart	120 min, post injection	3.3 ± 1 %ID/g
